Measured values from different studies.
A part holds a random share of what one study measured.

Sample 1
Target: RING finger protein unkempt homolog, zinc fingers 1-6, GST-SBP tag (UNK, Homo sapiens, UniProt Q9C0B0, residues 30-357)
Technique: RNA Bind-n-Seq
Form: RNA
Medium: in vitro
Concentration: not given
Notes: RNA with constant flanks, human and mouse sites, ends assumed
Baseline: input RNA pool
Reading: higher = stronger binding
Residues (chain): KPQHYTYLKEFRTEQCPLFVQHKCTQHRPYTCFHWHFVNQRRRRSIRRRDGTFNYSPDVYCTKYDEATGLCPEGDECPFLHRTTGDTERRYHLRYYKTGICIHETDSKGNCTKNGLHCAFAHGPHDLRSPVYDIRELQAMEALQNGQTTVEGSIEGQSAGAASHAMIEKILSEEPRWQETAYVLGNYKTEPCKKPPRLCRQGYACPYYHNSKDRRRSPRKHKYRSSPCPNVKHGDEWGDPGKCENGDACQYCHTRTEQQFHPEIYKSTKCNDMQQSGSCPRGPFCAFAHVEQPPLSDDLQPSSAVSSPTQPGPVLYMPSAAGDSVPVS
Oligonucleotide | bound/input enrichment
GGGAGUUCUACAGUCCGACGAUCACCAGAAGAACCCUCCGGAUGUGAGCAGUCCUGGACAGAGCACGUGAGGAGGGGCCCUGGGCUAGCAGUUUGCUGGAUGGGAUUGGCUCCAAGAUGGGAGAUGAAGUCUAAAGGGUUUAUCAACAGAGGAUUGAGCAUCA | 0.0998 ratio
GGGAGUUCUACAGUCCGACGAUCUAUGAUCAAGUUCUUGUGGAGUCAGACAAUGAGAACCGCAUGGAGGAGAGCAAAGCACUCUUUAGAACAAUUAUCACCUACCCCUGGUUCCAGAACUCCUCUGUGAUUCUGUUCUUAAACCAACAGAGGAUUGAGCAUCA | 0.357 ratio
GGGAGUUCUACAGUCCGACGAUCUCAUUUGGGCGUGUCAGAGAGUCGUUACCUGUCAAGUAUCACCUACAGAAUAAGACCGACUUAGUUCAAGAUGUAGAAAUUUCUGUGGAGCCCAGUGAUGCCUUCAUGUUCUCAGGUCUCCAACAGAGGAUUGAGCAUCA | 0.358 ratio
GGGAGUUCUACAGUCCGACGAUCAAAUCAGAGGAACAUUGUGAAUUUGUAAAAUGACUUCUGUUUUCUCAAAGGCCAUGCCAUUGUAAAUUGUUAGUGUUCGCCAAAGGACAGCCAAGCUUUCUUUUAAAAAGUGAUAAAAGUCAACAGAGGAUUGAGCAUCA | 0.151 ratio
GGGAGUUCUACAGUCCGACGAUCAGACAUGUCUGAGGACAUGCAACAGGAUGCCGUUGACUGCGCCACGCAGGCCAUGGAGAAGUACAAUAUAGAGAAGGACAUUGCUGCCUAUAUCAAGAAGGAAUUUGACAAGAAAUAUAACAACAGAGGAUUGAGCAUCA | 0.49 ratio
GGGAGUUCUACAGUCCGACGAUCUCUAGCUUACCAGGGGACUUACACGUGACCAGUGGCCCCGAGAGCCCUUUCAACAAUAUAUUUAAUGAUGUGGACAAAUCGGAAGAUUUGCCCAGUCACCAAAAAAUAUUCGACUUAAUGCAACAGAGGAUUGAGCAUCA | 0.174 ratio
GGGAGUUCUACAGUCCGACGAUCGCAAGGCCAGAAGAACUGACUCCUCACGUAAUGGUGCUUCUGGCCCAACACCUGGCCCGGCACCGCUUGCGGGAACCCCAACUUCUGGAAGCCAUUGCUCAUUUCCUGGUGGUUCAGGAACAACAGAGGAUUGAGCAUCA | 0.0756 ratio
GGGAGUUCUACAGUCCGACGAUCAUUACAGCGUGGAUGAAUGCAAUUGGUCUGAUCAUCACGGCCCUCCCAGAGCCGUACUGGAUUGUGCUUCAUGACCGAAUUGUGAAUGUGAUCAGCAGUUCUAGCCUGACGUCAGAGACACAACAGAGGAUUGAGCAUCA | 0.186 ratio
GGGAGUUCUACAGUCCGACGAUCGAAUUACAGACCUCUAUUUUUUGAAGACCGAGCAGGGAUUAGCUGUGUCAGGAACUUGGAGUUGCACUUAACCUUGUAACUUUGUUUGGAGCUGGCACCUCUUGAAAUAAAAAGGAGGAUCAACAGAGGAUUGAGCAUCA | 0.371 ratio
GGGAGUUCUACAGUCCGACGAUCCUGUAUUUAUAAAUGUAUAAUGUAUUUAGCUACUUUUUGGUUUAAAUGAACUUGUUGGGUUAGCUUGGUAAAUGUUAUAAUUUUUACUAUUUUCUACAAAGAAAAUAUUUUCUAAUUUAACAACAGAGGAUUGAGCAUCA | 4.91 ratio
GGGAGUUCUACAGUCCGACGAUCAUUGAAACAAAAGUGUUAUCAGAGCUCGGUGUAGAUGCCCAGAGUCUUUCAGCCAUGGAGAUCAGGGAGAAAGCCAGAUCAUUUGCUCAGGCAGCCAUUGAAAAGCAGAAAUCGGCGUUUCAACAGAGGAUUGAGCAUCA | 0.0645 ratio

Sample 2
Target: Sal-like protein 4, full length isoform A (SALL4, Homo sapiens, UniProt Q9UJQ4, residues 1-1053)
Chain of UniProt Q9UJQ4 (whole entry, looked up): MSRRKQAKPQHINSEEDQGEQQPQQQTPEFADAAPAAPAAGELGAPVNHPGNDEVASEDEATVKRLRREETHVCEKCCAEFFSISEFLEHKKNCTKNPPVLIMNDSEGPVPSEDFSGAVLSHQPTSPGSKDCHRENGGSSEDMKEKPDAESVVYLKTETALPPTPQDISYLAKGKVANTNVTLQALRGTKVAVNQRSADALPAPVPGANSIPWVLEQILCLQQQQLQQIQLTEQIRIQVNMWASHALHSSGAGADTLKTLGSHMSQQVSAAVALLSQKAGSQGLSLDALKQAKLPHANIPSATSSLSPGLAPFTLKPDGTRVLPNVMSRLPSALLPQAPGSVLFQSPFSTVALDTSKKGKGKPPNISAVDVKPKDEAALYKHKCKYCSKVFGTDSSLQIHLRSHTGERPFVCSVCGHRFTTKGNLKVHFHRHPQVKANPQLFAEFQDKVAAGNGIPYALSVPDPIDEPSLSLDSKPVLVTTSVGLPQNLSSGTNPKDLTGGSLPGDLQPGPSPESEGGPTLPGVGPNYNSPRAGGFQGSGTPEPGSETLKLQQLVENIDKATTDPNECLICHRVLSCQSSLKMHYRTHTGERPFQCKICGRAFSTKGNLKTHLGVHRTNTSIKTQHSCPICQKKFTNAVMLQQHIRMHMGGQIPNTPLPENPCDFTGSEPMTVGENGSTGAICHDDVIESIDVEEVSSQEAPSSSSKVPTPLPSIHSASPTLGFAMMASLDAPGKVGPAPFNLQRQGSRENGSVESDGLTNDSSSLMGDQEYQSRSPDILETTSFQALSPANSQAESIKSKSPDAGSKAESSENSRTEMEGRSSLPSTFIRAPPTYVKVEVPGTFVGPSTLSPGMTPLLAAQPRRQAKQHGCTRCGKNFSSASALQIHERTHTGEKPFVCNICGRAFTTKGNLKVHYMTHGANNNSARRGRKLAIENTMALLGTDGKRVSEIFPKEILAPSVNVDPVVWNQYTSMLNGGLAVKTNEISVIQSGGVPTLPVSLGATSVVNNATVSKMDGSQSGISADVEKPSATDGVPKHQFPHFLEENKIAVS
Technique: universal PBM
Form: double-stranded DNA, one strand shown
Medium: in vitro
Concentration: 600 nM
Notes: 8-mer, flanks averaged, mean of replicates
Reading: higher = stronger binding
Oligonucleotide | E-score
CGTAAAAC | -0.0333
ATGCGAAA | 0.169
ACTTATCA | 0.21
AGGCAGAT | -0.000945
CCGATTCA | 0.0399
GCCCTCGC | -0.276
GAGCCTTA | -0.108
AGCCAATG | -0.114
AAGTTAAA | 0.212
TCAAATAA | 0.345
CCTGAAGA | -0.148
ACGTGCAT | 0.128
ACCACTAC | -0.0895
CCAAGATC | -0.0866
CCGTGCTC | -0.254
CAAGAGCA | 0.0241
AGGAGTCC | -0.26
AATAGCAG | 0.0168
GAATCAAA | 0.0464
CCGCGTAC | -0.196
AACCCTAC | -0.14
AGCCTTCA | -0.039

Sample 3
Target: RNA binding protein fox-1 homolog 2, RRM domain, GST-SBP tag (RBFOX2, Homo sapiens, UniProt O43251-10, residues 100-194)
Technique: RNA Bind-n-Seq
Form: RNA
Medium: in vitro
Concentration: 365 nM
Notes: natural RNA segment, single round, ends assumed
Baseline: no-protein control
Reading: higher = stronger binding
Residues (chain): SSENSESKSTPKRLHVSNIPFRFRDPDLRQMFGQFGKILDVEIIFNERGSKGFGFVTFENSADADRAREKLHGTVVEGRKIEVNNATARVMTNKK
Oligonucleotide | RBNS enrichment (R)
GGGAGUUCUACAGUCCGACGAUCUAGGCAGGGCUGGCUUUCUUAGCGUGUAACUUGUGUAGCAGCACAGGGCCCACACUUAGAAGGACCCCACACUUGGUUCAAGGCUCUGCUAUAGCGGAAAUUCUUAAUAAUGGAAUUCUCGGGUGCCAA | 0.223
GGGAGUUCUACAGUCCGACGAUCCUAGAGCCUCUUUGUGACUCCACCAACUCCUUCUUGUCUCCUUUUAUUGAAGAGUCCGCACACAUACUCACCCCUCUGGUGGGCCACAUGAGGACCUGCAUCUUGCAGAUUGGAAUUCUCGGGUGCCAA | 1.09
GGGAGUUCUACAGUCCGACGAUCACAAUUGCAUCUGUUACUAGUUUUGUAGGCUUUAAUCCUAGUGUGCGUUAAAUAUUGGGCAAAUUGCACUUGACUAAUUUUUGAAGAAAAGUAAUUUAUUCUGUCAAGAAUGGAAUUCUCGGGUGCCAA | 1.84
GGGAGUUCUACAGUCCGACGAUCAUUUUUAAAUUAACUGUUUUGAGCUUUGAAUACUUAAGGCUUUAGAGGGAGAACCCAAUUUUCAAUUAUGUUGGCUUUUUAUAAAGCUUGAGUUAUGUAAGAUUUAAAUAUGGAAUUCUCGGGUGCCAA | 1.28
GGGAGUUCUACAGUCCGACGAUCAUACCGGUUUAACUACUAGUGUGUUACUGCCUCAUUUAUCUACAUUAACUAGAACAGAAUGCUUACAAAGUUUACGUUAAUGUUAUAUAUUAUGUAUAAAUAAAUAUAUUUGGAAUUCUCGGGUGCCAA | 5.35
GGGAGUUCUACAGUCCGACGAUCUCUGAGGUGUUCAGAAUCUGACCCUCUUGGCAGAGAUCUGUCUGGGAAAUUUAACCAGGCAGUGGAUCAGCCAAGCCCCUCCCCAUUCUCACCAACCCCAGCUGGGACCAUGGAAUUCUCGGGUGCCAA | 0.303
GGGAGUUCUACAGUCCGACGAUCCUUCGCAGCUACAGCACAUCUAUUUUUAAUAUUGUGCUGAGCAAGACAGAUCGCUUGCAUAUUUUUAAAAAUUUCUACUACAGAGACAUUCCAAUAAACUCGUUAAGCCUUGGAAUUCUCGGGUGCCAA | 0.432
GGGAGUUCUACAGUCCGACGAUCCACAGGGGAAUGGGGUUACUUCUGUCUGAUCCUGGGCCUUUCUUUCAUCCCAAAUGACAAGGAAUGUGGCUCAGAGAAGGGUUUUUCUUUUUUGACCUUUCUUCUCUCAAUGGAAUUCUCGGGUGCCAA | 0.542
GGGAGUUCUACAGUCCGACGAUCGUUUACCCGUCAAGUAUUAGCAGCAGUAUUUCUCCCACACGGAGAAGCCUGUGCACAAGUAGCAUGGGCACCUGGAAAACUUGAACCUGGAAGGAAAGAUUCCCAGCAUGUGGAAUUCUCGGGUGCCAA | 14.3

Sample 4
Target: PABPC1L2, full length, GST fusion (mouse, UniProt A0ABA7IW68)
Technique: RNAcompete
Form: RNA
Medium: in vitro
Concentration: 20 nM
Notes: 7-mer, probes averaged, single round
Baseline: mean of 7-mers
Reading: higher = stronger binding
Residues (chain): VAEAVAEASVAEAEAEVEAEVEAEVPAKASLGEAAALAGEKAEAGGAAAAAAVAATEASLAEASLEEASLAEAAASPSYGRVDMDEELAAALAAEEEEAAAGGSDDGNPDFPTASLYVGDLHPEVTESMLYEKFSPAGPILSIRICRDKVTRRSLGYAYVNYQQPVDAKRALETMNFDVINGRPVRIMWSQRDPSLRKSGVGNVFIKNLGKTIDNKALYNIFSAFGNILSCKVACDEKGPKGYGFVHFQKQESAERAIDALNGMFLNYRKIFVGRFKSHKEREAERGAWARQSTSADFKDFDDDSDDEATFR
Oligonucleotide | 7-mer Z-score
CGGAAGC | -0.209
CUCAUUG | -0.186
GUAGUCC | -0.262
AUACGGG | 0.32
GGCCCUG | -0.264
AAUAGAU | 0.312
UGCUAGU | -0.324
UUUGAGG | -0.151
GUGAUCG | -0.211
UGGGGAU | 0.316
GUGAUCC | -0.166
AUUCGAC | -0.188
GUAAAGC | 0.265
AUCCCGU | -0.411
UAGAUGC | -0.133
GCUCCGA | -0.128
CGACACA | -0.0337
CGCAGAA | 0.283
AAAAGGA | 3.54
CGGUAUG | 0.0243
ACCAGUA | -0.0953
GGCGGCA | 0.372
GAUCUGU | -0.322
CGCAUAC | -0.237
CCGAGCG | -0.0808

Excerpt of the above (sample 3):
Oligonucleotide | RBNS enrichment (R)
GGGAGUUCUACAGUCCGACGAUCUCUGAGGUGUUCAGAAUCUGACCCUCUUGGCAGAGAUCUGUCUGGGAAAUUUAACCAGGCAGUGGAUCAGCCAAGCCCCUCCCCAUUCUCACCAACCCCAGCUGGGACCAUGGAAUUCUCGGGUGCCAA | 0.303
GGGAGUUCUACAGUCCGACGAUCCUUCGCAGCUACAGCACAUCUAUUUUUAAUAUUGUGCUGAGCAAGACAGAUCGCUUGCAUAUUUUUAAAAAUUUCUACUACAGAGACAUUCCAAUAAACUCGUUAAGCCUUGGAAUUCUCGGGUGCCAA | 0.432
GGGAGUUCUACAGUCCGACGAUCCACAGGGGAAUGGGGUUACUUCUGUCUGAUCCUGGGCCUUUCUUUCAUCCCAAAUGACAAGGAAUGUGGCUCAGAGAAGGGUUUUUCUUUUUUGACCUUUCUUCUCUCAAUGGAAUUCUCGGGUGCCAA | 0.542
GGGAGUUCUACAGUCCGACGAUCGUUUACCCGUCAAGUAUUAGCAGCAGUAUUUCUCCCACACGGAGAAGCCUGUGCACAAGUAGCAUGGGCACCUGGAAAACUUGAACCUGGAAGGAAAGAUUCCCAGCAUGUGGAAUUCUCGGGUGCCAA | 14.3
